# Measurements collected from several papers.
# A part holds a random share of what one study measured. Substitutions count along the parent as printed.

# Sample 1 — target: CCNF, cyclin fold, Cln2 fusion (human); technique: yeast growth competition, sequencing; matrix: yeast; setting: strong parent motif; baseline: not given; reading: higher = stronger binding
# Starting sequence: RBL1 docking peptide (human); GSAKRRLFGEDPP
Variant,normalised enrichment score
K4F,4.16
R6P,-0.0547
G9I,8.77
G9N,8.39
P12W,7.42
A3L,4.86
R6Y,2.91

# Sample 2 — technique: DHFR PCA, deep sequencing; matrix: yeast; added: (+)-ABA 2500 µM; baseline: wild-type fitted maximum; reading: higher = stronger binding
# Target: ABI1, truncated, D143A, DHFR fusion (Arabidopsis thaliana)
# Setting: methotrexate growth selection, single substitutions
# Starting sequence: PYL1, truncated, DHFR fusion (Arabidopsis thaliana); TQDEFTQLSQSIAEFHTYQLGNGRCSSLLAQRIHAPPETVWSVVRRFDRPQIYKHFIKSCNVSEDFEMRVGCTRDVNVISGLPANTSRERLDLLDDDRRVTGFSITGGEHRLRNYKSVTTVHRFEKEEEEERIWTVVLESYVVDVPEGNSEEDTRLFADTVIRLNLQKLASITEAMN
Variant,relative binding score [%]
M68V,91.6
R98E,97.7
P50M,16.4
R113M,105
I33P,-16.5
N149F,47.6

# Sample 3 — technique: RNA Bind-n-Seq; form: RNA; matrix: in vitro; tested at: 365 nM; baseline: no-protein control; reading: higher = stronger binding
# Target: RNA binding protein fox-1 homolog 2, RRM domain, GST-SBP tag (RBFOX2, Homo sapiens, UniProt O43251-10, residues 100-194)
# Setting: natural RNA segment, single round, ends assumed
# Constant ends, left off below: GGGAGUUCUACAGUCCGACGAUC … UGGAAUUCUCGGGUGCCAA
# Construct (chain): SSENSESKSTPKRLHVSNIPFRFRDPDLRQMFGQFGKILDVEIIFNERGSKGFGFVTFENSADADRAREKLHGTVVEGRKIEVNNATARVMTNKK
Oligonucleotide,RBNS enrichment (R)
UGGGCAGCCUGAGCUCCCUCGGGCUCGCCUGCCAGCCUGGAGUUCUUCCUGUGCUCCUUGAUCACCUGAGCUGCCUCAGAUUCCAUUUGGUCCUCUCCUUCCUGGAAGGC,0.223
UCUUACAAGUUCCUUGUUAAUGCACAAGCGUAGGGACCCUUGUACAGACUCUGGCAGUAUUGAUGAGCCUGGCGCUGUUUGCUUUGGUGCAGCCUCCACAGUGCGCGUUC,0.817
AGCAGAGAUGCACAAUAAGCAUUUGUCCAUUUGCUCUUUCCUCAACAGAGGAGAUUAGGAUUUCAAAGAACAAAGAACUGCCCAGUUUCUAUUGGGCUCUUAGACACAGA,0.341
UAGCUACAUUCUGAGAAAAGAGACUCAACAGGAGCUGUUCGCAGGCAUUUUUAAAGCAUUUCCCAACAGAAGAGCAACUAGCAAUAAAAUCCAGCUUUUGUUUGCCAGCC,0.7
AAUUGGUGUGUCCUAUGGAAAUGGAAAGAAAGAUAGAUAAGACAUUUCUGUCAAUUUUCAAGAACUUGGCUGUUUAUCUUUAAGAAAGAUAAAAUAUAUAUCCAAAAUAA,0.584
CUUGCUGUGUUGCAAUAUUUUGCUGCUGGACUUUGACCUACUUGUAUUAUGCAGAAAGUUAAUGCAGAUACCUAUUCAAGAUGAUAACUGUAAAGACACUGCUGUCUCCU,0.236
UAAUGAUCUGCAAGUCCCGGAGAGCAACAGCACAGCUCUGCCUGACGCUCUCAUUAAAAUCUAUGCAGCCAAGCUCGGCACUUUGUAGCAGCCGGCCUUGCGAAGCCUCC,0.308
CUCUAAGAACACUGAAAAAUCCACCGAUUUUUUGGGUAAGCUUCUUGGCAAUACCCUGUGGAUCUGAAACAGCUAAAAAAAUGAAUUUGAAUUGCGCCAGAUAGGUCAAU,0.288
ACAACAGAAGACGAAGGUCGCUUAGGCGAUACCCAUGAAGAAUCCAAGUUUAUUUCCCUUUCCAGCGUACAAUGUGUCCCUUCCUGGUUUUUUGAAACACCUCUCACUGC,0.274
UUACUCCAGCUGCCUCCCAGAUUAAUGCAUAAAGCCAAGGAACUACCCCGCUCCCUGCGCUAUAGGGUCACUUUAAGCUCUGGGGAAAAAGGAGAAAGUGAGAGGAGAGU,0.414
GCCCUGCACUUUGCAUAUCUGUAUAGAAAAUCAAGUCAAUCCCCCAUCCUCACACCCACUCAUCUCUGAGGAGCUAUGAACUGGUUUUGGUCCCUCUAAUGAUCCUCCAG,1.13
AGCGAGGUCUGCUUCUUUCUUUUUACUUCCCCUGUGUUUCUGAAAGGCGGUUUGGCCAGGCUUACUGCAGGCAUCCGACUGUAGAGAUCGCCACAGUCUCUGGGGCUCCA,0.445

# Mixed results
Molecule,target,test,system,setting,scale,endpoint,value
"PhoQ, residues 284 288 289 292 302 303 TGYLSA","PhoP, residues 12 14 15 18 19 LHSVQ (Escherichia coli, UniProt P23836)","Sort-seq, measured: YFP reporter",E. coli,"PhoQ-PhoP variant library, added: 10 µM Mg2+","baseline: high Mg2+ state, higher = stronger signaling",fold induction,17.5

# Some of these lines once more (sample 1):
Variant,normalised enrichment score
P12W,7.42
R6Y,2.91
R6P,-0.0547
